Published values from different studies.
Compare with care: the assays were run in different laboratories. “And” joins repeats or separate records; there may be more than shown.
NEK2: Serine/threonine-protein kinase Nek2 (NEK2, Homo sapiens, UniProt P51955)
TDP1: Tyrosyl-DNA phosphodiesterase 1 (TDP1, Homo sapiens, UniProt Q9NUW8)
Sequence of UniProt Q9NUW8 (whole entry, looked up): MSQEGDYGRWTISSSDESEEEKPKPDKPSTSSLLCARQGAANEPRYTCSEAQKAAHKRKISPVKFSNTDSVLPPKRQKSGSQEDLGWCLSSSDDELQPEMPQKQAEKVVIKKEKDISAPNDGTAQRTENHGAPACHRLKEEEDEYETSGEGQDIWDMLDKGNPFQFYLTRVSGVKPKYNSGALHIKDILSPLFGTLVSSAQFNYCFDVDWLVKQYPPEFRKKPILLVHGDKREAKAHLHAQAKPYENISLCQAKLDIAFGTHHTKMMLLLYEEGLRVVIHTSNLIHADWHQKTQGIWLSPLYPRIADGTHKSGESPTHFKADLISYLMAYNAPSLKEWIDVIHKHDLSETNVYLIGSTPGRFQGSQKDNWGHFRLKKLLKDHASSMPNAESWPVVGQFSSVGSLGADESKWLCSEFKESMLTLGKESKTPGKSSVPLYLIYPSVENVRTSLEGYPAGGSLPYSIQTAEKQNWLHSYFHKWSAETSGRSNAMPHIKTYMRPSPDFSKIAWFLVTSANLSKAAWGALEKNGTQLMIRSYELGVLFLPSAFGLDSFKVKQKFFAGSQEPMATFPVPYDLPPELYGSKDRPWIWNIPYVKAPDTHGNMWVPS

COc1ccc(O)cc1-c1c[nH]c2ncc(-c3cncc(C(=O)N(C)C)c3)cc12 — inhibition (NEK2; binding, competition with immobilised ligand; 0.2 µM): -11.9%
C=CC(=O)Nc1cc(-c2nn(C3CCN(CCNC(=O)[C@H](C)CCC45CC6CC(CC(C6)C4)C5)CC3)c3ncnc(N)c23)ccc1Oc1ccccc1 — inhibition (NEK2; inhibitor, KiNativ profiling; biochemical; 2 µM): 3.1%
Cc1cccc(-c2ccc3nc(NC(=O)C4CCCO4)nn3c2)c1 (stereo not shown) — remaining activity (NEK2; enzyme activity, Dundee kinase panel; 10 µM): 89%
C=CC(=O)N1Cc2nc(-c3cc(-c4cc(Cl)cnc4Cl)c(F)cc3F)n(-c3ccncn3)c2C1 — inhibition (NEK2; cell-free assay, inhibitor; 1 µM): -1.5%
COc1ccc(C=NOCc2ccc3nc(-c4ccccc4)c(Nc4ccc(C(=O)O)cc4)n3c2)cc1OCC#N — inhibition (TDP1; enzyme activity, inhibitor; 100 µM, unpurified compound): -2.5%
CS(=O)(=O)Nc1cccc(-c2csc3cnc(Nc4ccc(N5CCN(CCCCCOc6cccc7c6C(=O)N(C6CCC(=O)NC6=O)C7=O)CC5)cc4)nc23)c1 (stereo not shown) — inhibition (NEK2; probe labelling, inhibitor, KiNativ chemoproteomics; MOLT-4; 1 µM): 22.7%
Nc1ncc(-c2cc(-c3cnn(CC(F)(F)F)c3)ncc2F)nc1C(=O)NC1CNCC(F)C1 (stereo not shown) — remaining activity (NEK2; enzyme activity; 1 µM; baseline: DMSO control): 100%
C=CC(=O)Nc1cccc(-c2cnc3[nH]cc(C(=O)NC(C)(C)C)c3n2)c1 — inhibition (NEK2; kinase activity; 0.1 µM): 13% and 15%
CN1C[C@@H](c2c[nH]c3cc(Br)ccc23)NC[C@@H]1c1c[nH]c2cc(Br)ccc12 — remaining activity (NEK2; enzyme activity, inhibitor; 10 µM): 100%
COc1c(Cl)cccc1Nc1c(-c2ccncc2C#C[C@@]2(C)CCCN2C(=O)/C=C/CN(C)C)[nH]c2c1C(=O)NCC2 — remaining binding (NEK2; binding, competition with immobilised ligand; 3 µM): 81%
COc1ccc(C(=O)/C=C/c2ccccc2-c2c[nH]c3ccc(C#N)cc23)c(O)c1 — inhibition (NEK2; enzyme activity, inhibitor; 20 µM): 0%
NC(=O)C[C@H]1CCc2sc3ncnc(O[C@H]4CC[C@H](N5CCOCC5)CC4)c3c21 — inhibition (NEK2; enzyme activity, inhibitor; 10 µM): 0%
O=C(O)c1ccc(Nc2c(-c3ccc(CON=Cc4ccc(-c5cccs5)nc4)cc3)nc3cc(-c4ccccc4)ccn23)cc1 (mixture of isomers) — inhibition (TDP1; enzyme activity, inhibitor; 100 µM, unpurified compound): 6.9%
O=C(O)CCC(=O)c1cccc(NS(=O)(=O)c2c[nH]c3ncccc23)c1 — remaining activity (NEK2; kinase activity, radiometric; 10 µM): 105%
Cc1cnc2nc1Nc1cccc(c1)COC/C=C/COCc1cc(ccc1OCCN1CCOCC1)N2 — remaining binding (NEK2; binding; 0.1 µM): 91%
Nc1ncc2c(n1)-c1c([nH]c3ccc(C4=CCOCC4)cc13)CCC2 — remaining binding (NEK2; binding, competition with immobilised ligand; 1 µM): 100%
O=C=[N][Ru-4]123([n]4c5ccc(O)cc5c5c6c(c7cc(F)c[n+]1c7c54)C(=O)NC6=O)[S+]1CC[S+]2CC[S+]3CC1 (stereo not shown) — remaining activity (NEK2; enzyme activity; 100 nM, human enzyme, together with: 10 µM ATP; baseline: untreated): 105%
C=CC(=O)N1CCCC(n2c(=O)c3ncccc3n(Cc3ccc(Oc4ccccc4)cc3)c2=O)C1 (stereo not shown) — remaining binding (NEK2; cell-free assay, competition with immobilised ligand; 1 µM): 100%
COc1c(OCCCN2CCOCC2)ccc2c1N=C(NC(=O)c1cnc(N)nc1)N1CCN=C21 — remaining activity (NEK2; kinase activity, inhibitor; 1 µM; baseline: untreated control): 107%
COCC12C(=O)NC3C4(C(OC)CC1O)C1CC5(O)C(OC)C(O)C(OC(C)=O)(C1C5OC(=O)c1ccccc1)C3(O)C(OC)C24 (stereo not shown) — remaining activity (NEK2; kinase activity, inhibitor, ProQinase kinase profiling; 25 µM; baseline: control): 101%
Cc1cccc(O[C@H]2CCC[C@@H](C(C)CNCc3ccncc3)C2)c1 (relative stereo) — inhibition (NEK2; enzyme activity, inhibitor; 10 µM): -7%
COc1cc(Nc2nccc(-c3cnn4nc(OC)ccc34)n2)cc(C(F)(F)F)c1 — remaining binding (NEK2; binding, competition with immobilised ligand; 1 µM): 100%
Cc1cccc(-c2ccc3nc(NC(=O)C4CCCCC4)nn3c2)c1 — remaining activity (NEK2; enzyme activity, Dundee kinase panel; 10 µM): 95%
Cc1ccc(-c2c(/C=C(\C#N)C(=O)NC(C)C)n(CCCO)c3ncnc(N)c23)cc1 — remaining binding (NEK2; cell-free assay, competition with immobilised ligand; 1 µM): 71%
CCN1CCN(Cc2ccc(C(=O)Nc3ccc(C)c(NCc4cnc5[nH]ccc5c4OC)c3)cc2C(F)(F)F)CC1 — remaining binding (NEK2; binding, competition with immobilised ligand; 1 µM): 75%

A few entries again:
C=CC(=O)N1Cc2nc(-c3cc(-c4cc(Cl)cnc4Cl)c(F)cc3F)n(-c3ccncn3)c2C1 — inhibition (NEK2; cell-free assay, inhibitor; 1 µM): -1.5%
COc1ccc(C(=O)/C=C/c2ccccc2-c2c[nH]c3ccc(C#N)cc23)c(O)c1 — inhibition (NEK2; enzyme activity, inhibitor; 20 µM): 0%
